Experimental data from different studies.
A part holds a random share of what one study measured. Several values in a cell are separate wells, animals, samples, runs or records.

Block 1 — host: human; medium: microsomes or S9; concentration: 2 µM; time: 0.5 h
With CC(C)(C)OC(=O)C1C(=O)CC(C)(O)C(C(=O)OC(C)(C)C)C1c1cccnc1 (stereo not drawn) the remaining compound was 54.6%.
The remaining compound of O=S(=O)(CCNc1ccccc1F)c1ccccc1 is reported as 23.4%.
O=c1c2c([nH]n1-c1nc3ccccc3[nH]1)CCCC2 has a remaining compound of 83.3%.
Cc1cc(-c2[nH]c3[nH]c(=O)[nH]c(=O)c3c2-c2cc(C)sc2C)c(C)s1 gave a remaining compound of 26.9%.
Cc1c(NC(=O)CCC(=O)N(c2ccccc2)c2ccccc2)c(=O)n(-c2ccccc2)n1C gave a remaining compound of 49.2%.

Block 2 — effect on: enzyme activity; action: inhibitor; concentration: 0.5 µM; reference: control
Target: Calcium/calmodulin-dependent protein kinase type II subunit beta (CAMK2B, Homo sapiens, UniProt Q13554)
Chain of UniProt Q13554 (whole entry, looked up): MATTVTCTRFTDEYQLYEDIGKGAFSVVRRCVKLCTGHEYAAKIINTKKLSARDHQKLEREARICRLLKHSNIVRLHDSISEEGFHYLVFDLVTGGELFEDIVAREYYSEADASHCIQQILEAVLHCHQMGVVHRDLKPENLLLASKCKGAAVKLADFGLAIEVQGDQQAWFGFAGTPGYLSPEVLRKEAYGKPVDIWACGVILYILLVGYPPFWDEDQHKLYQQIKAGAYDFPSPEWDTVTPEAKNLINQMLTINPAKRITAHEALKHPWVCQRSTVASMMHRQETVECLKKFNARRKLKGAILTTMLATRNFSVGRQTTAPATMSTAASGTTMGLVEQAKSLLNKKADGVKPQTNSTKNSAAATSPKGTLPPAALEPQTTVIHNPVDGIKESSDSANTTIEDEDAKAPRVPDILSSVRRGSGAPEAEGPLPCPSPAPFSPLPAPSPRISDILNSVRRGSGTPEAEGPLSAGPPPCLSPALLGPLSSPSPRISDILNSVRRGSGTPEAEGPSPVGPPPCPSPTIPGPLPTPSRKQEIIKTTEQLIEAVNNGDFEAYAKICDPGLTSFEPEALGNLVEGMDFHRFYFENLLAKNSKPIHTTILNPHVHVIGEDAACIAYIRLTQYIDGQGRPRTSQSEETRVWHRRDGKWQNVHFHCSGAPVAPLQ
The remaining activity of CN(C)C[C@H]1CCn2c(c(C3=C(c4cn(C)c5ccccc45)C(=O)NC3=O)c3ccccc32)C1 is reported as 96.9%.
With CCN(CC)C(=O)c1ccc(Nc2nc(OCC3CCCCC3)c3[nH]cnc3n2)cc1 the remaining activity was 97.6%.
With N#C/C(=C\c1ccc(O)c(O)c1)C(=O)NCc1ccccc1 the remaining activity was 102%.
With COc1cc2ncnc(Nc3ccc(O)c(Br)c3)c2cc1OC the remaining activity was 99.3%.
For c1ccc(-c2[nH]ncc2-c2ccnc3ccccc23)nc1, the remaining activity was 97.2%.
CN([C@@H](Cc1ccc(OS(=O)(=O)c2cccc3cnccc23)cc1)C(=O)N1CCN(c2ccccc2)CC1)S(=O)(=O)c1cccc2cnccc12 gave a remaining activity of 97.8%.
The remaining activity of Nc1cccc(-c2cc3c(Oc4cccc(O)c4)ncnc3[nH]2)c1 is reported as 101%.
With COc1cc2c(cc1OC)-c1[nH]nc(Nc3cccc(F)c3)c1C2 the remaining activity was 101%.
Cc1cn(-c2cc(NC(=O)c3ccc(C)c(Nc4nccc(-c5cccnc5)n4)c3)cc(C(F)(F)F)c2)cn1 gave a remaining activity of 95%.
For Cc1nc2cc3nc(-c4cccs4)cnc3cc2n1C, the remaining activity was 101%.
For Cc1cc2ncc(-c3ccccc3)nc2cc1C, the remaining activity was 101%.
For COc1cc2ncnc(Nc3cccc(Cl)c3)c2cc1OC, the remaining activity was 91.2%.
N#Cc1c(NC(=O)c2cccc3ccccc23)sc2c1CCCC2 gave a remaining activity of 101%.
With c1ccc(-c2cnc(Nc3ccc(OCCN4CCCC4)cc3)s2)cc1 the remaining activity was 84.2%.
O=C1C(Cl)=C(N2C(=O)CCC2=O)C(=O)c2ccccc21 has a remaining activity of 106%.
CCN(CC)CCNC(=O)c1c(C)[nH]c(/C=C2\C(=O)Nc3ccc(F)cc32)c1C has a remaining activity of 46.7%.

Block 3 — effect on: cell-free assay; concentration: 10 µM
Target: 5-hydroxytryptamine receptor 3A (HTR3A, Homo sapiens, UniProt P46098)
Chain of UniProt P46098 (whole entry, looked up): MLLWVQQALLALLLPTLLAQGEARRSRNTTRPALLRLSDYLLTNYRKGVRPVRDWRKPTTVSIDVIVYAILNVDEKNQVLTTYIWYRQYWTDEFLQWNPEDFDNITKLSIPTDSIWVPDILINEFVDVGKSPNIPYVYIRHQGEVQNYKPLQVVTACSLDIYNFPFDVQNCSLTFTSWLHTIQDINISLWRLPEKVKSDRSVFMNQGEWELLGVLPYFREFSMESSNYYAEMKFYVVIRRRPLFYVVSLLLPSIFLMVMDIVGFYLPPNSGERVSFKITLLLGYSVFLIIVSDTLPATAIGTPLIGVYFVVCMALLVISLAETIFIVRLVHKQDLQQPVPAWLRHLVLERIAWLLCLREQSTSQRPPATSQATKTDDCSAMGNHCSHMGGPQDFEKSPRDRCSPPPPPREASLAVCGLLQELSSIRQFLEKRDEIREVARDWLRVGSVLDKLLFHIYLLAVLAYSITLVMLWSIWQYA
With CC(C)CC(=O)N1CCc2nc(-c3ccc(Br)cc3)nc(N(C)Cc3ccccc3)c2C1 the inhibition was -4.38%.
With CS(=O)(=O)N1CCCC(NC(=O)[C@H](CCC2CCCCC2)NC(=O)c2ccc(CNC(=O)c3cnc4ccccn34)cc2)C1 (stereo partly drawn) the inhibition was 3.83%.
For O=C(NS(=O)(=O)c1ccc(NCC2CCOCC2)c([N+](=O)[O-])c1)c1ccc(N2CCN(Cc3ccc(C(F)(F)F)cc3-c3ccc(Cl)cc3)CC2)cc1Oc1cnc2[nH]ccc2c1, the inhibition was 8.67%.
For CCOc1cc(N2C3COCC2CN(C(=O)[C@H]2C[C@H](O)CN2c2ccc(Cl)cc2)C3)ccc1Cl, the inhibition was -1.97%.
CC(=O)N1CCC(c2ccc(C(=O)NC3=NCCN3)cc2C(F)(F)F)CC1 has an inhibition of -4.49%.
For C[C@@H](c1cccc(C#N)c1)n1cc(Cl)cc(C(N)=O)c1=N, the inhibition was -10.5%.

Block 4 — organism: Sarcocystis neurona; effect on: parasite growth; concentration: 10 µM; notes: secondary screen
OC(CCN1CCCC1)(c1ccccc1)C1CCCCC1 (stereo not drawn) has an inhibition of -3.2%.
COCc1c(C(C)C)nc(C(C)C)c(/C=C/[C@@H](O)C[C@@H](O)CC(=O)O)c1-c1ccc(F)cc1 has an inhibition of 31.2%.
With CN(C)CCN(Cc1ccccc1)c1ccccn1 the inhibition was -31.5%.
CC(C)[N+](C)(CCOC(=O)C1c2ccccc2Oc2ccccc21)C(C)C.[Br-] has an inhibition of -40.7%.

Single results of other studies — time: 24 h
For C[C@@H]1CN(c2ccc(-c3cc(C(=O)NCCOCCOCCOCCOCCNC(=O)/C=C/c4[nH]cc(C(=O)N[C@@H](CC(N)=O)c5ccc(F)c(Cl)c5)c4-c4ccc(Cl)cc4F)ccc3F)cc2NC(=O)c2c[nH]c(=O)cc2C(F)(F)F)C[C@H](C)N1C, the viability was 102% and 90.1% and 80.3% (MV4-11 expressing HiBiT-WDR5; ATPlite; RPMI with 10% FBS; 3800 nM).
For CC(C)C[C@@H]1NC(=O)[C@@H](N(C)C(=O)[C@H](CC2CCC2)NC(=O)[C@@H]2C[C@@H](F)CN2C(=O)C2(C(F)(F)F)CC(F)(F)C2)CCCCNC(=O)C2(CC2)NC(=O)[C@H](Cc2cc(Cl)ccc2Cl)N(C)C1=O, “G0-G1 phase cells” read 49.8% and 50% (human CD34+ HSPC; EdU flow cytometry; 300 nM).

A few entries again (block 4):
CC(C)[N+](C)(CCOC(=O)C1c2ccccc2Oc2ccccc21)C(C)C.[Br-] has an inhibition of -40.7%.
OC(CCN1CCCC1)(c1ccccc1)C1CCCCC1 (stereo not drawn) has an inhibition of -3.2%.
